Results collected from several papers.
Compare with care: the assays were run in different laboratories.

For `Cc1ncsc1-c1ccc(CNC(=O)[C@@H]2C[C@@H](O)CN2C(=O)[C@@H](NC(=O)COCC(C)(COCCOCCOCCNC(=O)C[C@@H]2N=C(c3ccc(Cl)cc3)c3c(sc(C)c3C)-n3c(C)nnc32)COCCOCCOCCNC(=O)C[C@@H]2N=C(c3ccc(Cl)cc3)c3c(sc(C)c3C)-n3c(C)nnc32)C(C)(C)C)cc1`, the concentration was 2260 ng/mL (male C57BL/6 mouse, plasma; subcutaneous, 5 mg/kg, 1 h, single dose).
`CC(C)n1ncc2c(C(=O)NCCN(C)C)cc(C3CC3)nc21` has a concentration of 20.9 ng/mL (female BALB/c mouse, plasma; intraperitoneal, 50 mg/kg, 5 h).
`CC(C)(O)c1ccc(N2Cc3c(ccnc3-c3ccc(F)cc3OCC(F)(F)F)C2=O)cc1` has a concentration of 7620 ng/g (male C57BL/6 mouse, brain; oral, 100 mg/kg, 6 h).
For `[2H]C([2H])(N)C([2H])([2H])NC(=O)c1cc(C2CC2)nc2c1cnn2C(C)C`, the concentration was 864 ng/mL (female BALB/c mouse, plasma; intraperitoneal, 50 mg/kg, 4 h).
For `O=C1CCC(N2Cc3cc(C(=O)O)c(F)cc3C2=O)C(=O)N1` (stereo not drawn), the concentration was 18.4 ng/mL (male CD-1 mouse, plasma; intravenous, 1 mg/kg, 2 h).
`C=CC(=O)N1CC2C(=O)N(CCN(C)C)c3c(c4cc(Cl)c(-c5c(O)cccc5F)nc4n(-c4c(C)ccnc4C(C)C)c3=O)N2CC1C` (stereo not drawn) gave a concentration of 12.8 µM (nude mouse, plasma; oral, 100 mg/kg, 8 h).
`Cc1c2ccnc(C(=O)N[C@H](C)CN(C)C)c2cc2c3cc(OCCCN4CCN(C)CC4)ccc3n(C)c12` has a concentration of 1.93 µM (male C57BL/6 mouse, plasma; intraperitoneal, 10 mg/kg, 2 h, single dose).
`CC(C)n1ncc2c(C(=O)NC[C@@H](C)N)cc(C3CC3)nc21` has a concentration of 1230 ng/mL (female BALB/c mouse, plasma; intraperitoneal, 30 mg/kg, 15 min).
`C=CC(=O)N1CCCC(n2c(=O)c3ncccc3n(Cc3ccc(Oc4ccccc4)cc3)c2=O)C1` (stereo not drawn) has a concentration of 5590 ng/mL (male BALB/c mouse, plasma; oral, 200 mg/kg, 4 h).

Repeated from above:
`CC(C)(O)c1ccc(N2Cc3c(ccnc3-c3ccc(F)cc3OCC(F)(F)F)C2=O)cc1` has a concentration of 7620 ng/g (male C57BL/6 mouse, brain; oral, 100 mg/kg, 6 h).
